Results collected from several papers.
Numbered parts are unrelated; each lists some results of a single study. Substitutions count along the parent as printed.

Series 1 — method: universal PBM; molecule type: double-stranded DNA, one strand shown; medium: in vitro; tested at: not given; direction: higher = stronger binding
Target: Sal-like protein 4, full length isoform B (SALL4, Homo sapiens, UniProt Q9UJQ4-2, residues 1-616)
Setting: 8-mer, flanks averaged, mean of replicates
Construct (chain): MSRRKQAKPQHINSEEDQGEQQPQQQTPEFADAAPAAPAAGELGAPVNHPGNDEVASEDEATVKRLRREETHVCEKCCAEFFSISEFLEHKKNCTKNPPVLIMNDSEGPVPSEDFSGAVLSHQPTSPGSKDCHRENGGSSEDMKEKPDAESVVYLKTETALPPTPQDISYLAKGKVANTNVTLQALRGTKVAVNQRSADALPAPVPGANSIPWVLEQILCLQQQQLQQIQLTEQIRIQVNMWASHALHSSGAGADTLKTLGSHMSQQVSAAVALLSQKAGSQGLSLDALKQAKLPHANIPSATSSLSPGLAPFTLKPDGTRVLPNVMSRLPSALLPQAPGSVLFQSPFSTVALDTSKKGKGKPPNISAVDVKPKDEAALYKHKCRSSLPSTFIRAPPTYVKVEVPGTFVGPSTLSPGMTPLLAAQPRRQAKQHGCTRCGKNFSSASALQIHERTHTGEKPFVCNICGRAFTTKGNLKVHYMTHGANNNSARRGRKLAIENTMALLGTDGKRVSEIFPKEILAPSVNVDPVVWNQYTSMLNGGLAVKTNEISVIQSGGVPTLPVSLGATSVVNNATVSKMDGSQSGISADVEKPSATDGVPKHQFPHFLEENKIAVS
| Sequence | E-score |
| --- | --- |
| CGAACCTA | -0.142 |
| CTAGTTGC | -0.0249 |
| GTAACGAC | -0.211 |
| CCTAGGGC | -0.262 |
| ACACTTTC | 0.057 |
| ACCCTGTC | -0.233 |
| TATTTTAA | 0.396 |
| ACTGGAGC | -0.18 |
| TATAGCGA | 0.157 |
| AAACGCAA | 0.108 |
| TGCAAGAA | 0.045 |
| AATTAAGC | 0.271 |
| AAACAATC | 0.231 |
| ACATACCT | 0.11 |
| GAGACCAA | -0.107 |
| TCCGCAAA | 0.0644 |
| ACGAAATC | 0.0224 |
| AATGTTCA | 0.138 |
| TAGACTCA | -0.0451 |
| CAATTTTA | 0.357 |
| AATTTGCT | 0.266 |
| CTCGGTAC | -0.197 |
| ACCTGAGG | -0.225 |
| GCAACGTA | 0.123 |

Series 2 — target: CCND2, cyclin fold, Cln2 fusion (human); method: yeast growth competition, sequencing; medium: yeast; setting: weak parent motif; baseline: not given; direction: higher = stronger binding
Starting sequence: BORA docking peptide (human); SSLRRKLFLDGNG
| Change | normalised enrichment score |
| --- | --- |
| S1A | 0.141 |
| F8A | 0.324 |
| L7A | 0.0101 |
| R5A L7A | -0.186 |
| L9F | -0.215 |
| F8L | -0.34 |
| G13A | -0.111 |
| G11A | 0.23 |
| R5K L9F | 0.331 |
| S2A | 0.245 |
| R4A | 0.0335 |

Series 3 — method: RNA Bind-n-Seq; molecule type: RNA; medium: in vitro; tested at: not given; setting: RNA with constant flanks, ends assumed; baseline: input RNA pool; direction: higher = stronger binding
Target: RING finger protein unkempt homolog, zinc fingers 1-6, GST-SBP tag (UNK, Homo sapiens, UniProt Q9C0B0, residues 30-357)
Target sequence (chain): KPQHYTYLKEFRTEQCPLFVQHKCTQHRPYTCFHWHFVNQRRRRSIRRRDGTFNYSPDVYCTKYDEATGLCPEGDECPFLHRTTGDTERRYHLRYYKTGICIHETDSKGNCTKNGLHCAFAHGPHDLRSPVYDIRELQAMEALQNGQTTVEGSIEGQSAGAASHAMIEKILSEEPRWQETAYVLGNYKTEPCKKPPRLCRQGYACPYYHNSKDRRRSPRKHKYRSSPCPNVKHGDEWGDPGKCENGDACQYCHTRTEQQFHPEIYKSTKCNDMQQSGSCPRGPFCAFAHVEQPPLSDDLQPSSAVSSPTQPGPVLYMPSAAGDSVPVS
| Sequence | bound/input enrichment [ratio] |
| --- | --- |
| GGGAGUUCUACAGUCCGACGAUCGAGAAUUUAAAUUGAUUCUCAGUUCUGUCAUCAUUAGUUUCUUUUACAUUAAUAUGUCCACCGUUUGCAUGUUCCCUGGACAGCUUUGUCUUAAUUUCCAUGAGUAGAACUGUGACUUCUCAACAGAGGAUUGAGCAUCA | 32.8 |
| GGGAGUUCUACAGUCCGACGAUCAAGGAACUGGAAGUACCUCAUUUUCACCACGAGCUUGUAUAUGAAGCCAUUGUAAUGGUUUCCGAGUCAACUGGAGAAAGUGCAUUCAAGAUGAUCUUAGAUUUAUUAAAAUCCUUGUGGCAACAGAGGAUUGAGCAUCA | 0.577 |
| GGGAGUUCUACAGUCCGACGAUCGCAACAAGUGAAGAAGAAGCUAAAUUUGGUGCCAGACGCUUAGCCCGUAGUCUGCAGAAACCCGGUUUUCAGGUAAUAUUUACAGAUUUUAAGGUUGUUAACGUUCUGGCAGUGUGUAACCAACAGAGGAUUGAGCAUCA | 0.317 |
| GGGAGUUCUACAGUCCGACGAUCGAUUAUACAAUUCCCGAUGAGUAUAGAAUCGGACCAUAUCAGCCUAAUGUUCCUGUUGGUACCGACUAUGUGAUACCUAAAACAGGGUUUUACUGUAAGCUGUGUUCACUCUUUUAUACACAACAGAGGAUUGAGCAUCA | 0.0777 |
| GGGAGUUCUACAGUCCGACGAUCAUAAAAUAAAAAUAAAAUAAAACAGAAAUAUUACUCUUCCAUAUUCCUUCUGGCUAUAUUCCGUAAUUAAUUUAUUUUAUGGUAAAGUUCUAAUGACAUGUAAAUUGUUUCAGCAAAGCUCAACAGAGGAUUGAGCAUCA | 0.696 |
| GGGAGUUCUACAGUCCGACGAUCGUAGAAUCUUGUUUGUAGGCUGAAUUUUAAUCUGUAUUUAUUGUCUUUUGUAUCUCAGAAAUCCGAAACUUGCUACAGACUUACCCGUAAUAUUUGUCAAGAUCAUAGCUGACUUUAAAACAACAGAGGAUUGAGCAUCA | 1.41 |
| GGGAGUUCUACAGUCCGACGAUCGGUGUCUUCUCAAACGGAGUAAGCGCCUGGAUCCAAAUGGUAGACUACUUGACCCCGUUCUCCCGCGUGAGUUUUCAUAGUGCCAUCUCCUCAUGAUUGUAGAAGCAGCUGAAUGAGUUUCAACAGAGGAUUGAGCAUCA | 0.145 |
| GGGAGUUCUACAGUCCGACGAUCGGGUUAUAUCAAUAUAAGAACAUAUGCCAACAGGUAAACAUUAAAUCUUUAGAAGAUGUUGUCCGGGCAUAUUUGAAAUUAGCAGAGGAAAAAACAGAAGCUGCUAAAGAAGAGUCCCAACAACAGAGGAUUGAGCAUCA | 0.576 |

Series 4 — method: RNA Bind-n-Seq; molecule type: RNA; medium: in vitro; tested at: 365 nM; baseline: no-protein control; direction: higher = stronger binding
Target: RNA binding protein fox-1 homolog 2, RRM domain, GST-SBP tag (RBFOX2, Homo sapiens, UniProt O43251-10, residues 100-194)
Setting: natural RNA segment, single round, ends assumed
| Sequence | RBNS enrichment (R) |
| --- | --- |
| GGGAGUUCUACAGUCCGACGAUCUUUCAAUGGGACAGGAACUAGGAUAGAUGUGAUUCCUGCAUUUUUUUACCUUAAAUCUGCCUUUGUUUCUAAAGGUAGAUCAUCUUGAAUAUUUGCUUAAAAUUGCUAGUUGGAAUUCUCGGGUGCCAA | 0.937 |
| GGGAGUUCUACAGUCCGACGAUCAUUGUGUUCCUUCUACAAGUACAGAGUGAAUGAGCAUCCUAGAGAAACUGUCUGGUGUUGGGAAGGGAUGAGUUCUUGUAAAUCUGUAAAUAGCUUCAAUAAGAUGUAAAUGGAAUUCUCGGGUGCCAA | 0.834 |
| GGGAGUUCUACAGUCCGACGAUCCACGAGACCCCGGCUUCCUUUCCCAAGCCUUCGGGCGUCUGUGUGCGCUCUGUGGAUGCCAGGGCCGACCAGAGGAGCCUUUUUAAAACACAUGUUUUUAUACAAAAUAAUGGAAUUCUCGGGUGCCAA | 0.435 |
| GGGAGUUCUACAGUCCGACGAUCUAGUUUCACUGCUCAUAUACCAGCUGCUACAAGAAAAACCAUGACUUGUAAGUUUGUCUUUACUCCUAAUUGCUAAAUUAACUGAAACCCUUCCUGUCUAGGGAGAAUUGUGGAAUUCUCGGGUGCCAA | 0.522 |
| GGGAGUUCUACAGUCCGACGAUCCGCCUCCCCAGCACCUGCCCUCCCAGUCUCCCACCCCGGCCCCAGGCUGGAAGCCCUCCCUCCACUUAAGUUAUUGUUUUAAACCAAAGUUUACAGUGUCUGUUGGUGGCUGGAAUUCUCGGGUGCCAA | 0.635 |
| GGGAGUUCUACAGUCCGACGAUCUGGCUUGGUUUCCAUGAUUCUUACUUUAUUAGCCUAGUUUAUCACCAAUAAUACUUGACGGAAGGCUCAGUAAUUAGUUAUGAAUAUGGAUAUCCUCAAUUCUUAAGACAUGGAAUUCUCGGGUGCCAA | 0.481 |
| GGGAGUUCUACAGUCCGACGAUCCCCUGAAACUGAGUCUGUGGACACUGUGGAAAGCUUUGAACAAUUGUGUUUUCGUCACAGGAGUCUUUGUAAUGCUUGUACAGUUGAUGUCGAUGCUCACUGCUUCUGCUUGGAAUUCUCGGGUGCCAA | 0.442 |
| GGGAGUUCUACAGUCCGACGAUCAAAAUGUUAACUUUGCCUAAAAAUAUUGCAGUGACUUUUUAGGCAGGAGUGCCAAAGGACACUAUGAACUUUUUGAACUGACAGUUUCUCCUAACUUUCUGCUUUAGCGUUGGAAUUCUCGGGUGCCAA | 0.639 |

Some of these lines once more (series 1):
| Sequence | E-score |
| --- | --- |
| AATTTGCT | 0.266 |
| AATGTTCA | 0.138 |
| GTAACGAC | -0.211 |
| GCAACGTA | 0.123 |
| CGAACCTA | -0.142 |
| ACACTTTC | 0.057 |
| ACTGGAGC | -0.18 |
